Results gathered from unrelated publications.
Numbered parts are unrelated; each lists some results of a single study.

Set 1
Target: Sal-like protein 4, full length isoform A (SALL4, Homo sapiens, UniProt Q9UJQ4, residues 1-1053)
Sequence of UniProt Q9UJQ4 (whole entry, looked up): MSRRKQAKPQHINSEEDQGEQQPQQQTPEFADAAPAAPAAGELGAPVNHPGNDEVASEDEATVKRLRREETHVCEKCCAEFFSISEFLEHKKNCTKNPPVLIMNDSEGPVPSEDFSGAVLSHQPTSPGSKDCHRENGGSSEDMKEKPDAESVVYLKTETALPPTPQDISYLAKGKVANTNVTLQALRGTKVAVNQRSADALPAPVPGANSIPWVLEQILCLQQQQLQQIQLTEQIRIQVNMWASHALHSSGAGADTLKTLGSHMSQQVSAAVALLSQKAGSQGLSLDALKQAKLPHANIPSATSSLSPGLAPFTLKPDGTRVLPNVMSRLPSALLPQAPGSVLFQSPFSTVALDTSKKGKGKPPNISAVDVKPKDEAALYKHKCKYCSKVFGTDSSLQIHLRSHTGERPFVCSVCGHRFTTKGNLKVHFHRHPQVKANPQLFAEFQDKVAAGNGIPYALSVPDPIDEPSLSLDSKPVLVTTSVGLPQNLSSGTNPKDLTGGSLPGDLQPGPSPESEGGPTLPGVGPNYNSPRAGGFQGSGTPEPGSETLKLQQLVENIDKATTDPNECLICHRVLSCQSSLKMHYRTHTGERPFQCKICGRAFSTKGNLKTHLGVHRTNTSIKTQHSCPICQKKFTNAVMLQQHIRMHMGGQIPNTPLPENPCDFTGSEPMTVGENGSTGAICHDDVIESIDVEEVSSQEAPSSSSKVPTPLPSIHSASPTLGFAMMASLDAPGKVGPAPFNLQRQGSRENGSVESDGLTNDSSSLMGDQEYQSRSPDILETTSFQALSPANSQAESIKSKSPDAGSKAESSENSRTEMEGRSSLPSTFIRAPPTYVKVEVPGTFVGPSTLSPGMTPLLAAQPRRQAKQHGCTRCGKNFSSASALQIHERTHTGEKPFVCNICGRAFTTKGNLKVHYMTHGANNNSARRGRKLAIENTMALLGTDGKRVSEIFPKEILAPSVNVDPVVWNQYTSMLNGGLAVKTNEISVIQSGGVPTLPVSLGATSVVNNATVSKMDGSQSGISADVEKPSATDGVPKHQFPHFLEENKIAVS
Technique: universal PBM
Molecule type: double-stranded DNA, one strand shown
Matrix: in vitro
Tested at: 600 nM
Notes: 8-mer, flanks averaged, mean of replicates
Direction: higher = stronger binding
Sequence | E-score
ACTTCTTG | -0.0562
AGCCACTG | -0.227
CTCCGAAG | -0.208
TAGGACGA | -0.0291
ATTAATCG | 0.313
ATTCCACC | 0.0319
AAAGCGCC | -0.122
CGCCGCAC | -0.256

Set 2
Target: Centromere-binding protein 1, full length, N-terminal tag (CBF1, Saccharomyces cerevisiae, UniProt P17106, residues 1-351)
Sequence of UniProt P17106 (whole entry, looked up): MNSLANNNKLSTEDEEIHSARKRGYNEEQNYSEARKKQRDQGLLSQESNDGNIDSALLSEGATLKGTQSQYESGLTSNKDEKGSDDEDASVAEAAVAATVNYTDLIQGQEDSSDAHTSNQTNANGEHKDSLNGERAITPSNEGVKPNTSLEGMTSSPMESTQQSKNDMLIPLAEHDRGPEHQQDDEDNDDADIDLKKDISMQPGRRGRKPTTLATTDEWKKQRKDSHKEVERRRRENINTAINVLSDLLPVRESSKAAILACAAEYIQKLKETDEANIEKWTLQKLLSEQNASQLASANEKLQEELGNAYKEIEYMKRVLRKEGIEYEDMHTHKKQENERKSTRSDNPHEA
Technique: protein-binding microarray
Molecule type: double-stranded DNA, one strand shown
Matrix: in vitro
Tested at: 0.8 µM
Notes: whole 60-bp probe, no competitor
Direction: higher = stronger binding
Constant ends, left off below: … GTCTTGATTCGCTTGACGCTGCTG
Sequence | fluorescence intensity [a.u.]
CTAAAGGTGTCAAATATCATGATGAATGAGGTCTTC | 515
TGTACGAAGCTATAGAACGTGGATATAGTAGTTAGG | 556
CTAAGTTTGAAGAATAATCTGATGCTTTTTACATTC | 492
CTACGTTGTGGGCACCACCACTCACAGTATCCTTTC | 496
TGTACGAAGCTATATCACGAAATTATAGTAGTTAGG | 546
CTAGCGAGACAGAAGGACGTGCCCTTAGCTATTTTC | 486
GAATTGATCGCGTGTCACGTGACCAAATCGTACTAG | 49500
CTACCGATTTAAATTCACCTGGTAACTTTCCTATTC | 529
CTAGTGAGAGACGGTCATCAGATTTAGTTGGAGTTC | 559
CTATTCGGATGATCTGCCGTGACAGGTGGTTCGTTC | 690

Set 3
Target: Interferon regulatory factor 5, full length, phosphomimetic (IRF5, Homo sapiens, UniProt Q13568-2, residues 1-514, K96S/S451D/S453D/S456D/S462D)
Technique: protein-binding microarray
Molecule type: double-stranded DNA, one strand shown
Matrix: in vitro
Tested at: 250 nM
Notes: 60-bp whole probe
With: salmon DNA 0.4 mg/ml
Baseline: random background probes
Direction: higher = stronger binding
Constant ends, left off below: GCCTAGCAC … GTCTTGATTCGCTTGACGCTGCTG
Sequence | log fluorescence [z-score]
GACGGTTTCCTTATCCTGGCGTGCTAG | 0.779
GACGATCTCAGTATGGAGACGTGCTAG | -0.14
TCATGAGTCCCTATCTCACTGTGCTAG | -0.287
CACGGACTGGACTTTCGGGACGTGCTA | 4.38
TGGGGGGATCAGGGAAACAGGTGCTAG | 1.69
TCACCTTTCCAAATACCACTGTGCTAG | 0.623
GACGAACGGAGTATCGAGACGTGCTAG | 1.23
TCACTCTTCTTGCATCTGACTGTGCTA | 0.886
TTAGGTTTCGACTTTCGGTCAGTGCTA | 10.5
GACGGTATCGACTACCGGGACGTGCTA | 2.58

Further values, each from its own experiment
Substance | target | test | system | conditions | scale | measurement | result
PhoQ, residues 284 288 289 292 302 303 SSLVEF | PhoP, residues 12 14 15 18 19 STWGI (Escherichia coli, UniProt P23836) | Sort-seq, refers to: YFP reporter | E. coli | PhoQ-PhoP variant library, with: 10 µM Mg2+ | baseline: high Mg2+ state, higher = stronger signaling | fold induction | 1.66

A few entries again (set 2):
Sequence | fluorescence intensity [a.u.]
CTAAAGGTGTCAAATATCATGATGAATGAGGTCTTC | 515
TGTACGAAGCTATAGAACGTGGATATAGTAGTTAGG | 556
